Results collected from several papers.
Numbered parts are unrelated; each lists some results of a single study. Changes are numbered by the printed parent chain.

Block 1
Cell line: yeast with cyclin B3-Cln2 chimera
Read-out: cell growth
Mode: binder
Technique: competitive growth deep sequencing
Form: peptide
Concentration: concentration not given
Notes: peptide tiling library
Reading: direction not given
| Sequence | growth enrichment score |
| --- | --- |
| RDLFDCDFGDLTPLDF | 0.245 |
| ALLRRLQDVANDRGSH | -0.147 |
| LRRKLFLDGNGSIS | 0.448 |
| KPKPVKPVTFSTGIKM | -0.818 |
| ESSTVSEEDYFSSHRD | 0.173 |
| IQKKLRFEDTLEFVGF | -0.376 |
| QYQVVDDIVSKLVFDF | 0.611 |
| DKYDEGLYRFNSLNDL | 0.192 |
| CFRCLLFSFSGRSGVE | -0.938 |
| EPKTLFLGAGDFQF | 0.712 |
| ARKRLELGNLGNPQ | -0.812 |
| KPHVSDEEEEEPPFYH | 1.08 |
| VEEEFFALRKRTPSAG | 0.882 |
| RSLKLDGLLEEN | -2.52 |
| GLPDFVFQQQPVESEA | 0.331 |

Block 2
Target: Hepatocyte nuclear factor 3-alpha (Foxa1, Mus musculus, UniProt P35582, residues 1-468, full length assumed)
UniProt P35582, sequence (whole entry, looked up): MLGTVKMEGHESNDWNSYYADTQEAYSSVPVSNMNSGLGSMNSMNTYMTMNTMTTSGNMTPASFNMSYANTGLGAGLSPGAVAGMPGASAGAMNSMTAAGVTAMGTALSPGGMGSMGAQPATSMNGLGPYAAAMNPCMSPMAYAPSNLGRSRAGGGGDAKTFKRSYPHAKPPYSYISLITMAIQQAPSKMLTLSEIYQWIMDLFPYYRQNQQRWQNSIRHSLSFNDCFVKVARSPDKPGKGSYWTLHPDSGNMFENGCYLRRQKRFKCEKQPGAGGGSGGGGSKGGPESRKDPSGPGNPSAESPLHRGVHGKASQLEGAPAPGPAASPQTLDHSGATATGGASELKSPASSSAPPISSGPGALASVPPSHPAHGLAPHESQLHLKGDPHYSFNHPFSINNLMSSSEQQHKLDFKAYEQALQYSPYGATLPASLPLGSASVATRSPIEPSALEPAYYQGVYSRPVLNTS
Technique: EMSA with sequencing
Form: double-stranded DNA, one strand shown
Sample: in vitro
Concentration: 10 and 20 nM
Notes: whole designed probe, mean of two concentrations, ends assumed
Baseline: negative control set to 0
Reading: higher = stronger binding
| Strand | normalised bound fraction [ratio] |
| --- | --- |
| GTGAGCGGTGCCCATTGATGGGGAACTAAAAGCATCCTGTGAATCAAAAGAAGATGGCAGATTTTCTGAATACTACTAAGGACTTCATTTAGCATATGCACAATCCTATTAAAAGAAAAAGTAATCTAGTAAATAAGCAAAAATGTATTATCATCCTTCCTGTGTCAAGAGAGTACTCCATTTATACAGCCATAGAAAACTGCAATGAAGATAGGTAATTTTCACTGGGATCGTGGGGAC | 0.00674 |
| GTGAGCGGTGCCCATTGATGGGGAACATCTTCCCCCTCTTCCTTGCCCCACCAGCTCACCTTCCCGGGTTATTTGCAGATAGGAAAATAAATAAAGCCGGCATTCGTGATGAATCATGACGCGCATACTGCTGTTTGCTCTGGATCTAACATGGTCCTTTGGCGACGCCAGGCTCCGGGAGAGCAAAGCACCGTGTCAGGGCCATGATCCGGGGTGGCCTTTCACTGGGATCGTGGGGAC | 0.367 |
| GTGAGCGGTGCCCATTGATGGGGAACTTTCCAGCCCTTAGTTTCTGGCATTTAACCTGACTCTGGTCCCTGAATGGCATGGGAGTGCTTTCAACCACAGGTTTCCACATTCATGCAAAAGCAAACAAGTGTGATCTACAGAGATCTTTATCTGACTCATTCTTGCTTTGTGTTTCCAATGGAGAAAGAGCTTGGGAAGGGAGGATCCTAATTGTCTAAATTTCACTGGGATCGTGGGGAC | 0.283 |
| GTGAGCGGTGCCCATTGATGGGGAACATCTTCCCCCTCTTCCTTGCCCCACCAGCTCACCTTCCCGGGTTGTTTACTTTGAGCAAAGTAAACAAAGCCGGCATTCGTTAACCCTCTTCTGGCGCAAACTGCTGTTTACTTTGGATGAATCATGGTCCTTTGGCGACGCCAGGCTCCGGGAGAGCAAAGCACCGTGTCAGGGCCATGATCCGGGGTGGCCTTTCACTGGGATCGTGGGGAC | 0.532 |
| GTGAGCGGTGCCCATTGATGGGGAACTTATGAGCCTTCCCATGTTATGGCTACATAGCTGTGATTATGTAATAAGTGGAGTTACGCTCCTGCGCTCCAAACTCGCTGAGTCACACAGGATGTTTACCTTGGCCTATGCCTGCCTGGCTGCAGTGCAGGCATATTCCTTACAAATAAACATTTCCTGAGAAACACCTACATGCTGGGCACTCTATTAGGCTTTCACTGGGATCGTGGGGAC | 0.268 |
| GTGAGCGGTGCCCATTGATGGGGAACTACTGGTTATAAGGAGAAGAGGCTAACAACTGTAGTAGTCTCAGATTGCTACAATTTTACACTATGAAATATGAGTGCCACAGATTTTCAGAGTAATCTTGGGAGAGTAATCTAAAATAATGTGAAAATAAATCTCTAGTTAGATAGGAGTATCAGGAGAAAAGGCACAAGCAAGCATGCAAAGTGGAAAAAATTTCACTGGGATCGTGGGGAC | -0.00768 |
| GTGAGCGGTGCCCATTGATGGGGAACCACAAAATTTTCCATTTGCTTCTCCTGCATTTAGAAGCATCCACTTCCCTCTCTTCCCTTTGCTTTTGAAATATAAGTGTAATATTTGCCCAGGGTAATCTGACTTGGAGCTTGGGAGACAGCATTGTGTAATGGATGTTAATTTGGCCTGATTTCACTCTTGGCTCTCTGATTTGTTAGATCTATGAACCTGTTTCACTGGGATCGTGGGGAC | 0.0634 |
| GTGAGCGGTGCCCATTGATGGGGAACAATTCATTACTAAGCATAAGATAGTATATGGCTATGGTGAAAGAAATAGTGACTTATGAAATAAATTGCTTTACTAAACAACTTTCTTTTTATGTTTACTTAGATTGCAAATTAGGCCTGGTACTTTCTTTGAGGACCATGATGATAAGAAAATATTTGTATCAATTATCTCCATGCTGTAGCCTAGATATAATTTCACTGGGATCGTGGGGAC | 0.455 |

Block 3
Target: Centromere-binding protein 1, full length, His-tagged (CBF1, Saccharomyces cerevisiae, UniProt P17106, residues 1-351)
UniProt P17106, sequence (whole entry, looked up): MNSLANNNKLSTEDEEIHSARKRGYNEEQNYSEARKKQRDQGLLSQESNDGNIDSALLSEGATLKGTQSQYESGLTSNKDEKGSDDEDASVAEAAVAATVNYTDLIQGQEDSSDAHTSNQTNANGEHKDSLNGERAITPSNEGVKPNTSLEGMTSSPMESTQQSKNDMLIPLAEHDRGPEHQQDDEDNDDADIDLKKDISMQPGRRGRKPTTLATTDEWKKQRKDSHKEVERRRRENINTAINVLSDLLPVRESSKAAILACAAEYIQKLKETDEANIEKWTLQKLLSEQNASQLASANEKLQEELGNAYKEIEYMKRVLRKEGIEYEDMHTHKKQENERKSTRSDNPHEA
Technique: competition protein-binding microarray
Form: double-stranded DNA, one strand shown
Sample: in vitro
Concentration: 2 µM
Notes: whole 60-bp probe, lowest competitor level
With: Pho4 competitor, 0.05 µM
Reading: higher = stronger binding
| Strand | fluorescence intensity [a.u.] |
| --- | --- |
| GTCTTGTCTCATTGTCCTGTGGGTGTCCCCACTTCAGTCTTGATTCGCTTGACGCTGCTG | 89.9 |
| GTCTTGTCTCATTGGTAAGTGGGTGTCCCCACTTCAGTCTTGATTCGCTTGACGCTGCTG | 72.7 |
| CTTTCCCGATCTTTTCACGTGACATTAGCACATTTGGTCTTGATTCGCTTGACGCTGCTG | 5440 |
| TGGAAAGCTTGATGACATGTGATAGCACACCATGCTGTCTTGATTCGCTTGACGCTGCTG | 457 |
| CGGGGTTAAGTTTGGACCGTGGGTGGCTTGCAGCAGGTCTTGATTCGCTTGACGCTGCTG | 64 |
| TCTGTAACTTAATCACACGTGCAAAGTCTCTTTTACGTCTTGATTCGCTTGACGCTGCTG | 1330 |
| TGCGCAACAACTTGGGAGGTGGGTGTATGTCTAGAAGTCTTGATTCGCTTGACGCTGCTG | 61.6 |
| GCAAAAACACCGCAACTCGTGGTGACGGGGTAAGAAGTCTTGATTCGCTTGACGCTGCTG | 78.2 |
| AGGATCGTTGAGTACAGCGTGGGTAAATTTTTAGCGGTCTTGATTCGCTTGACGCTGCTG | 79.3 |
| AAATTACTAAGTTGACGGGTGGGTGACGCCGTATGAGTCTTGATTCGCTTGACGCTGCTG | 75.2 |
| AGTTGGTATATTTTGCACGTGTAGTCTAATGTTCTTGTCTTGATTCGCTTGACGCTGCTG | 2030 |
| CATACCCAACCTTGAGGCGTGGGTGAAGATATTTGTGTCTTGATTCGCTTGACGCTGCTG | 63.9 |
| GAAATTTTACTGATTGGCGTGGGACAGTTTTTGTTAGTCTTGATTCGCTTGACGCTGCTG | 67.8 |
| GCTAGAGAGTTTCACCACGTTAATGGACTGAACCTTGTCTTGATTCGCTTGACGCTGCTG | 80.8 |
| TTGAATACATAATCGCACGTGATGGAACAATAAAGAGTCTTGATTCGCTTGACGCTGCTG | 4690 |
| ATTCTCTATTTGTATCGCATGCGCGGTCGCTGTTCTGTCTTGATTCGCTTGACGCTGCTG | 82.8 |
| GAATTTTGCGTTCCGCACGTTTCTCAAGTACATAATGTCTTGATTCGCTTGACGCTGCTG | 123 |
| TACAATGTCGAGCCTCTCGTGGGTAATCTGGAACAGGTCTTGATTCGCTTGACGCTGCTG | 97.1 |
| TACCCTTGCACCTTCCACAACCATATTTTTGGTCTAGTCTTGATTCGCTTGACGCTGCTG | 50.7 |
| TCAAGATTGGTGGCGCTCGTGAAATAATGCCATTGCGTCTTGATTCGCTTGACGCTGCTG | 81.3 |

Block 4
Target: ABI1, truncated, D143A, DHFR fusion (Arabidopsis thaliana)
Technique: DHFR PCA, deep sequencing
Sample: yeast
Notes: methotrexate growth selection, single substitutions
With: (+)-ABA 2500 µM
Baseline: wild-type fitted maximum
Reading: higher = stronger binding
Starting sequence: PYL1, truncated, DHFR fusion (Arabidopsis thaliana); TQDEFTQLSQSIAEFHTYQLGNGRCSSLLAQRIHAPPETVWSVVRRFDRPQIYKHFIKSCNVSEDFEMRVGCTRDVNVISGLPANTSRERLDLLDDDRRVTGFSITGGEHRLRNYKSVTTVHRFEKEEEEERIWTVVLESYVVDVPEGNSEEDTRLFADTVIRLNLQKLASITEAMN
| Variant | relative binding score |
| --- | --- |
| L8R | 86% |
| N85H | 98.7% |
| V40N | -9.11% |
| R69P | 70% |
| Y18C | 92.7% |
| H110Y | 17.8% |
| V100S | 91.7% |
| Q7R | 106% |
| R155L | 95.8% |
| S87W | -3.6% |
| A30H | 99.8% |
| T86Y | 91% |
| V78D | 0.269% |
| S26T | 95.5% |
| T106W | 106% |
| R99E | 91.5% |
| V136H | 81.1% |
| D153Q | 87.3% |
| L94I | 110% |
| R49Q | 97.2% |
| T39N | 97.5% |
| L29E | 62.7% |

Block 5
Target: Sal-like protein 4, full length isoform A (SALL4, Homo sapiens, UniProt Q9UJQ4, residues 1-1053)
UniProt Q9UJQ4, sequence (whole entry, looked up): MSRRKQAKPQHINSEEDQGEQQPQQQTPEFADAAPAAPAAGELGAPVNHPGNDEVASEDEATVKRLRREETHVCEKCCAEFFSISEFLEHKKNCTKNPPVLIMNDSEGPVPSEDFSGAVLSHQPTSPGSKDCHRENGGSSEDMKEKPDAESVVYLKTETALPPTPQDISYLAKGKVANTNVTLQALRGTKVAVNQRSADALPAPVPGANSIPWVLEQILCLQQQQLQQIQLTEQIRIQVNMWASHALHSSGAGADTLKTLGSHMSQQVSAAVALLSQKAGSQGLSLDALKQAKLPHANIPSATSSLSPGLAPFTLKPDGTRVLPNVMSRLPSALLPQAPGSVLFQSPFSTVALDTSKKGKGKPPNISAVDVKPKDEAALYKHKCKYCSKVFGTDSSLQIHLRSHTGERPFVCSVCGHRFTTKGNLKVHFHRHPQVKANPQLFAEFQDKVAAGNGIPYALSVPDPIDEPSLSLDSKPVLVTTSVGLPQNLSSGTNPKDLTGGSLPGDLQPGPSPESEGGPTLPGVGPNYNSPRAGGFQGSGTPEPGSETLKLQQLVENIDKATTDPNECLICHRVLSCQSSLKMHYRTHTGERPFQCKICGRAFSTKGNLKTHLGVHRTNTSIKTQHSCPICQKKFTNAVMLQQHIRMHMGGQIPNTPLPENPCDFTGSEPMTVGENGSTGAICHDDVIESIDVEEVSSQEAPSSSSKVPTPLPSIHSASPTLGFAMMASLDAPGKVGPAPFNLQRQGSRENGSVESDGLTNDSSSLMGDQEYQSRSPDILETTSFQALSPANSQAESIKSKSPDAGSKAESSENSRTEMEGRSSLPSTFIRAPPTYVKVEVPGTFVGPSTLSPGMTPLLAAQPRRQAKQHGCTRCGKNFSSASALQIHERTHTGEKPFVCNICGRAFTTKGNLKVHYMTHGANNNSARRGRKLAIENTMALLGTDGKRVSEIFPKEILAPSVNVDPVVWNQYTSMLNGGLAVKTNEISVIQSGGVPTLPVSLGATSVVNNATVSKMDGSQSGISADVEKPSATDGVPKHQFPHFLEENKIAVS
Technique: universal PBM
Form: double-stranded DNA, one strand shown
Sample: in vitro
Concentration: 600 nM
Notes: 8-mer, flanks averaged, mean of replicates
Reading: higher = stronger binding
| Strand | E-score |
| --- | --- |
| TAATCCGA | 0.162 |
| ATATTTCC | 0.338 |
| CCCTTTAA | 0.0228 |
| ATAAACAA | 0.376 |
| ATAAGGAC | 0.0911 |
| GGAGCGCC | -0.396 |
| AATCAACA | 0.294 |
| CGGGCAGC | -0.429 |
| CTCCTAGC | -0.175 |
| ATTGGTGC | -0.0934 |
| TACGGGAA | -0.0496 |
| AGCTACCA | -0.121 |
| GCGGGAGA | -0.29 |
| GAATGCGA | 0.0695 |
| TAGTCGAA | 0.0655 |
| ATGTCTCC | 0.0474 |
| AAATCCTA | 0.191 |
| GCAGGTAC | -0.255 |
| AGCTCTTA | -0.124 |
| ACCAACCG | -0.202 |
| CGCGACAG | -0.24 |
| ATAGCTAA | 0.207 |
| ATGACCAT | 0.101 |
| AGAATCAA | 0.0322 |
| AATATTGA | 0.394 |

Repeated from above (block 3):
| Strand | fluorescence intensity [a.u.] |
| --- | --- |
| GAAATTTTACTGATTGGCGTGGGACAGTTTTTGTTAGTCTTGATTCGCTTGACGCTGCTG | 67.8 |
| GCTAGAGAGTTTCACCACGTTAATGGACTGAACCTTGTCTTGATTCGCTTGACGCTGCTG | 80.8 |
| TTGAATACATAATCGCACGTGATGGAACAATAAAGAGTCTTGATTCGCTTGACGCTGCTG | 4690 |
| ATTCTCTATTTGTATCGCATGCGCGGTCGCTGTTCTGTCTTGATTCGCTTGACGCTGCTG | 82.8 |
| GAATTTTGCGTTCCGCACGTTTCTCAAGTACATAATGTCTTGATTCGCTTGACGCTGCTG | 123 |
| TACAATGTCGAGCCTCTCGTGGGTAATCTGGAACAGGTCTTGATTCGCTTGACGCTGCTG | 97.1 |
